Assay results from different studies.
Protocols differ between the studies behind these lines. “And” joins repeats or separate records; there may be more than shown.
CCKBR: Gastrin/cholecystokinin type B receptor (CCKBR, Homo sapiens, UniProt P32239)
USP5: Ubiquitin carboxyl-terminal hydrolase 5 (USP5, Homo sapiens, UniProt P45974)
Protein-S-isoprenylcysteine O-methyltransferase: Protein-S-isoprenylcysteine O-methyltransferase (Homo sapiens, UniProt O60725)
Coelenterazine h 2-monooxygenase: Coelenterazine h 2-monooxygenase (Renilla reniformis, UniProt P27652)
MAST3: Microtubule-associated serine/threonine-protein kinase 3 (MAST3, Homo sapiens, UniProt O60307)
PTGS2: Prostaglandin G/H synthase 2 (PTGS2, Homo sapiens, UniProt P35354)

O=C1c2sc(-c3ccc(N4CCC(F)C4)nc3F)nc2CCN1c1cccnc1 (stereo not drawn) — inhibition (CCKBR; ligand displacement, radioligand; 1 µM): -2%
O=C(NN=c1c(=O)c2ccccc2c1=O)c1ccncc1 — inhibition (USP5; enzyme activity, inhibitor; 17 µM): 85%
CCCCCCCCN(CCC(=O)Nc1ccccc1)C(=O)C1CCOC1 (stereo not drawn) — inhibition (Protein-S-isoprenylcysteine O-methyltransferase; enzyme activity; Sf9 membranes; 50 µM, with: [3H]S-adenosylmethionine, biotin-farnesyl-L-cysteine): 41%
Br.CCCCCCCCCn1c2c(c(=N)c3c1CCC3)CCCC2 — inhibition (Coelenterazine h 2-monooxygenase; luciferase activity, inhibitor, luminescence counter-screen; concentration not given, test 3 new dilution): 78.9% and 58%
Nc1n[nH]c2cc(O)nc(O)c12 — inhibition (USP5; enzyme activity, inhibitor; 17 µM): 97%
CCn1cc(C(=O)O)c(=O)c2c(N)c(F)c(NC3CCCCC3)cc21 — inhibition (MAST3; kinase activity; 0.1 µM, with: ATP at Km): 15.7%
CCn1c2ccccc2c2cc(CNCCCn3ccnc3)ccc21 — inhibition (DRD3 (Homo sapiens, UniProt P35462); enzyme activity, inhibitor; 10 µM): 89.3%
O=c1c(=NO)c(=O)c2ccccc12 — inhibition (USP5; enzyme activity, inhibitor; 17 µM): 94%
C/C=C(/C)C(=O)O[C@@H]1C=C(C)CC[C@]2(O)[C@@H](C(C)C)CC(=O)[C@]12C — inhibition (PTGS2; enzyme activity, inhibitor; 0.24 µg/mL): 0%
CC1(C)CC(=O)C(=NNc2ccc3c(c2)OCO3)C(=O)C1 — inhibition (USP5; enzyme activity, inhibitor; 17 µM): 6%
CCCCCCCCN(CCC(=O)Nc1ccccc1)C(=O)c1cccc(OC)c1 — inhibition (Protein-S-isoprenylcysteine O-methyltransferase; enzyme activity; Sf9 membranes; 50 µM, with: [3H]S-adenosylmethionine, biotin-farnesyl-L-cysteine): 26%
Cc1ccc(C=C2SC(=O)NC2=S)o1 — inhibition (USP5; enzyme activity, inhibitor; 17 µM): 83%
N=C(N)NCCCC(NC(=O)C(CC(=O)NO)Cc1ccc2ccccc2c1)C(=O)NC(Cc1c[nH]c2ccccc12)C(=O)NC(CCC(=O)O)C(N)=O (stereo not drawn) — inhibition (Matrix metalloproteinase-17 (Homo sapiens, UniProt Q9ULZ9); 1 µM): 1%
O=C(c1ccccn1)N1CCc2ccccc2C1 — inhibition (USP5; enzyme activity, inhibitor; 17 µM): 59%
CS(=O)(=O)c1ccc(-n2cc(C=NN=c3[nH]c(-c4ccc([N+](=O)[O-])cc4)cs3)c(-c3ccc([N+](=O)[O-])cc3)n2)cc1 — inhibition (PTGS2; enzyme activity; 100 µM): 91.4%
CN1CCN(Cc2ccc(-c3ccc(CO[C@H]4CCC[C@@H]4NC(=O)c4cc(-c5cnn(C)c5)cnc4N)cc3)cc2)CC1 — inhibition (NEK8 (Homo sapiens, UniProt Q86SG6); enzyme activity, inhibitor; 0.1 µM): 4%
COc1cccc(-c2cc(F)c(NC(=O)Nc3sc(C)nc3C(=O)O)c(F)c2)c1 — inhibition (DHODH (Homo sapiens, UniProt Q02127); enzyme activity, DCIP colorimetric; 0.10 µM): 91.5% and 92.4% and 93.3%
CCCCCCCCN(CCC(=O)Nc1ccccc1)C(=O)c1cc[nH]c1 — inhibition (Protein-S-isoprenylcysteine O-methyltransferase; enzyme activity; Sf9 membranes; 50 µM, with: [3H]S-adenosylmethionine, biotin-farnesyl-L-cysteine): 81%
CO[C@@H]1OC[C@@H](O)[C@H](O)[C@H]1O — inhibition (PTGS2; enzyme activity, inhibitor; 0.98 µg/mL): 22.7%
C/C=C/C(=O)Nc1ccc2nc(NCCCCCN(C)C)nc(NCCCCCCN(C)C)c2c1 — inhibition (PRMT6 (Homo sapiens, UniProt Q96LA8); enzyme activity, inhibitor, radiometric; 50 µM): 82%
C[Si](C)(C)C[C@H](CN)CC(=O)O — inhibition (NMDA receptor, rat; binding, radioligand binding; 250 µM, with: [3H]TCP): 2%
CC1=NN(c2ccccc2)C(=O)C1=NOCC(=O)N1CCCc2ccccc21 — inhibition (USP5; enzyme activity, inhibitor; 17 µM): 61%
O=C1c2sc(-c3ccc(N4CCC(CO)CC4)nc3F)nc2CCN1c1cccnc1 — inhibition (L-type Ca2+ channel, dihydropyridine site; radioligand binding, BioPrint binding panel; 1 µM, with: antagonist radioligand): 12%
CS(=O)(=O)c1ccc(-n2cc(C=NN=c3[nH]c(-c4ccc([N+](=O)[O-])cc4)cs3)c(-c3ccc(Br)cc3)n2)cc1 — inhibition (PTGS2; enzyme activity; 0.01 µM): 13.8%
CC(=O)[C@]12NC(C)(C)C[C@@]1(C)C(=O)C1=C2c2c(c3c4n2C(C)(C)CC2=C4[C@@]4(CC(C)(C)N[C@@](C)(C4)C2=O)CC3(C)C)C(=O)C(C)(C)N1 (racemic) — inhibition (KCNQ2 (Homo sapiens, UniProt O43526); ion current, inhibitor, patch clamp; HEK-293T; 40 µM): 7%
CN(C)C/C=C/C(=O)Nc1ccc2nc(NCCCCCN(C)C)nc(NCCCCCCN(C)C)c2c1 — inhibition (PRMT3 (Homo sapiens, UniProt O60678); enzyme activity, inhibitor, radiometric; 50 µM): 92%
C[Si]1(C[C@H](CN)CC(=O)O)CCCC1 — inhibition (CCKBR; cell-free assay, inhibitor; 70 µM): 8%
CS(=O)(=O)c1ccc(-n2cc(C=NN=c3[nH]c(-c4ccc(Br)cc4)cs3)c(-c3ccc(Br)cc3)n2)cc1 — inhibition (PTGS2; enzyme activity; 100 µM): 91.2%
O=C1NC(=O)C(CCCO)C(=O)C1=NNc1c(Cl)cccc1Cl (stereo not drawn) — inhibition (USP5; enzyme activity, inhibitor; 17 µM): 28%
C=CC(=O)Nc1cc(-c2nn(C3CCN(CCNC(=O)[C@H](C)CCC45CC6CC(CC(C6)C4)C5)CC3)c3ncnc(N)c23)ccc1Oc1ccccc1 — inhibition (MAST3; inhibitor, KiNativ profiling; biochemical; 2 µM): 13.2%
COc1ccccc1Nc1nc(NCC2CCCO2)c2ccccc2n1 (stereo not drawn) — inhibition (Coelenterazine h 2-monooxygenase; luciferase activity, inhibitor, luminescence counter-screen; concentration not given, test 3 new dilution): 77.7% and 77.8%
CC=C(C)C(=O)OC1CC2C(C=C(C)C3C(OC(C)=O)CC(=O)C13C)OC(=O)C2C (stereo not drawn) — inhibition (PTGS2; enzyme activity, inhibitor; 0.12 µg/mL): 0%
CC(=O)c1cnc(N)nc1N1CC[C@H]1c1nn2ccc(Cl)c2c(=O)n1-c1ccccc1 — inhibition (PI3-kinase catalytic subunit delta (Rattus norvegicus, UniProt A0A8I5Y949); kinase binding, KiNativ; rat white blood cells; 1 µM, 1 h, intact cells): 95.3%
CC(C)Oc1ccc(CNCCC2(C(C)C)CCOC(C)(C)C2)cc1 (stereo not drawn) — inhibition (Coelenterazine h 2-monooxygenase; luciferase activity, inhibitor, luminescence counter-screen; concentration not given, test 3 new dilution): 65.6% and 49%
CS(=O)(=O)c1ccc(-n2cc(C=NN=c3[nH]c(-c4ccc(Br)cc4)cs3)c(-c3ccc([N+](=O)[O-])cc3)n2)cc1 (mixture of isomers) — inhibition (PTGS2; enzyme activity; 10 µM): 68%
COCC(=O)N1CCc2cc(-c3csc(NC(=O)c4cc(OC)cc(OC)c4)n3)ccc21 — inhibition (CYSLTR1 (Homo sapiens, UniProt Q9Y271); ligand displacement, radioligand; 10 µM): -6%

Some of these lines once more:
CO[C@@H]1OC[C@@H](O)[C@H](O)[C@H]1O — inhibition (PTGS2; enzyme activity, inhibitor; 0.98 µg/mL): 22.7%
C/C=C/C(=O)Nc1ccc2nc(NCCCCCN(C)C)nc(NCCCCCCN(C)C)c2c1 — inhibition (PRMT6 (Homo sapiens, UniProt Q96LA8); enzyme activity, inhibitor, radiometric; 50 µM): 82%
C[Si](C)(C)C[C@H](CN)CC(=O)O — inhibition (NMDA receptor, rat; binding, radioligand binding; 250 µM, with: [3H]TCP): 2%
CC1=NN(c2ccccc2)C(=O)C1=NOCC(=O)N1CCCc2ccccc21 — inhibition (USP5; enzyme activity, inhibitor; 17 µM): 61%
